Published values collected from several papers.
A part holds a random share of what one study measured.

Series 1
Target: RNA binding protein fox-1 homolog 2, RRM domain, GST-SBP tag (RBFOX2, Homo sapiens, UniProt O43251-10, residues 100-194)
Method: RNA Bind-n-Seq
Form: RNA
Medium: in vitro
Tested at: 365 nM
Notes: natural RNA segment, single round, ends assumed
Relative to: no-protein control
Direction: higher = stronger binding
Shared flanks, not repeated: GGGAGUUCUACAGUCCGACGAUC … UGGAAUUCUCGGGUGCCAA
Target sequence (chain): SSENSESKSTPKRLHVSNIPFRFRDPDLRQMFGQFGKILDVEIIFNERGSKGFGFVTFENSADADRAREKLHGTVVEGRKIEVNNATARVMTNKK
| Strand | RBNS enrichment (R) |
| --- | --- |
| GGUUUGUGAAGUUUCACUCGUUGCCUAAAAUGCCCGAUGCCUCGUCUCCAGACCUUGCUGCCCUUGCCUGGUCAUCUUUGUACAGUAAUUGUAAAUGGCAGUGGAGACUA | 0.499 |
| GUGUCUGCAGGGUUUGUCAGUACUCGUCAAAGCCAAGUCCAAUUAAAAAAAAAAGUCUUUGCCCUCCAAUUUGUGUUUGAUGUUGACUUUCAGUAUGGGUAAAAAUAGGC | 0.534 |
| GCAGUUUAUUUUUCUUGGCCAACACAUUAAAACCAUUCUUGGAUUUCAAGUAGCCAAUUUUGCCUUUUUAUGUAUUUUUACAUAGUUUCCUCUUCAAGAAAAAAAAAGCA | 0.919 |
| AUGUGCUGCCCAACAACUAAAUUUGUAAUUUGUUUUUCUCUAGUUUGAGCAGGGUCUGAAUUUUUUCAUUUAUUUCCUUUUUUGCCAGCAGACAGACUUGAGUCUGUAAA | 1.06 |
| CCUGGAGCUUGCAUGUUGGGACAAAUCAGGACAAGUGCCAGCAGCCUGAAUAUUUCCAGUGCCUACCUGUGGUCUGUCCAGUUCUGGCCUGUAAGCCCUUCCCUAUCAGA | 1.64 |
| UAGCCCCGAAUCACUUCAGCUCCCUUCCCUGCCUGGACCAUUCCCAGCUCCCUGCUCACUCUUCUCUCAGCCAAAGCCUCCAAAGGGACUAGAGAGAAGCCUCCUGCUCC | 0.529 |
| GGAGGCAAAUGGGUUGUACAAGGUUUUAUGGCUCCGCGGGGAAUUUAAUUUCCUUUCUGGGCACCUUUUGUCCCCUACUUUUAAAUUAACGGUGAAACGGCCCUAGGAGG | 0.54 |
| UGUGUAAAUUGCUAUUCAACACUUGGAUAUUACCAGUCUGUGGUUUAAUUAUUCCUCCUAGUGAGCUUGCAAAGCAUAGACUAAAUUAAACCCUAAUGUUAGAUGUCAGU | 0.315 |

Series 2
Target: Interferon regulatory factor 5, full length, phosphomimetic (IRF5, Homo sapiens, UniProt Q13568-2, residues 1-514, K96S/S451D/S453D/S456D/S462D)
Method: protein-binding microarray
Form: double-stranded DNA, one strand shown
Medium: in vitro
Tested at: 250 nM
Notes: 60-bp whole probe
Together with: salmon DNA 0.4 mg/ml
Relative to: random background probes
Direction: higher = stronger binding
Shared flanks, not repeated: GCCTAGCAC … GTCTTGATTCGCTTGACGCTGCTG
| Strand | log fluorescence [z-score] |
| --- | --- |
| CTCTGGGGCTCCAGGGAGAAGTGCTAG | -0.814 |
| GACGGACTGGACTATCTGGACGTGCTA | -0.203 |
| GACGAACTGGGGACTGGAGTCGTGCTA | -0.603 |
| TTAGGTTTCCTCTTCCTTTAGTGCTAG | 0.7 |
| GACGATATCGGGACTGGCGACGTGCTA | 0.991 |
| TTAGGTCTCCATCTCCTTTAGTGCTAG | -0.0204 |
| TCAAGCCTCAGTCCTCACACTGTGCTA | -0.421 |
| GAGGATATCGGGTATCGAGACGTGCTA | 1.49 |
| GCCGGTCTCGGTATCGGGACGTGCTAG | 1.13 |
| GACGCTCTCAGTTTCGAGACGTGCTAG | 4.88 |
| TATTTTTTTGTAATCGAAATGTGCTAG | 1.84 |
| GACGATTTTGGGTTTCGAGACGTGCTA | 2.39 |
| TCCAAATTGTCTCTGTCCCTGTGCTAG | 0.115 |
| TTAAGTCTCGGACTGGGTTAGTGCTAG | 0.0698 |
| TCATATATCCATTATAGACTGTGCTAG | 0.544 |
| ACTCCTGTACATCTATGTAGGTGCTAG | -0.0935 |
| GACTGTTTCGGGACTGGGGACGTGCTA | 4.82 |
| GACGGTCTAGGTTTCGGGACGTGCTAG | 2.53 |
| ATAGATATGCCAAATCTGTGTGTGCTA | -0.0836 |

Series 3
Target: RING finger protein unkempt homolog, zinc fingers 1-6, GST-SBP tag (UNK, Homo sapiens, UniProt Q9C0B0, residues 30-357)
UniProt Q9C0B0, sequence (30-357, looked up): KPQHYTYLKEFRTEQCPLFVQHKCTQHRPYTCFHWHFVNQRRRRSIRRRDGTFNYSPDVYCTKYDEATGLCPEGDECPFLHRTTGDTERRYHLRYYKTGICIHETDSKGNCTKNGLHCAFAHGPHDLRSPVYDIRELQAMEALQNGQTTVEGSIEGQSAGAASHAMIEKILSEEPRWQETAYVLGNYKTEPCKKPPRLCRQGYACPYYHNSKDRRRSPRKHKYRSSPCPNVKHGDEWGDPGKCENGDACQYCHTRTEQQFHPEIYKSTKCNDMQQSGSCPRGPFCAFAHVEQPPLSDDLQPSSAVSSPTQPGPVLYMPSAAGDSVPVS
Method: RNA Bind-n-Seq
Form: RNA
Medium: in vitro
Tested at: not given
Notes: RNA with constant flanks, ends assumed
Relative to: input RNA pool
Direction: higher = stronger binding
Shared flanks, not repeated: GGGAGUUCUACAGUCCGACGAUC … CAACAGAGGAUUGAGCAUCA
| Strand | bound/input enrichment |
| --- | --- |
| UACAUGGGCUCACAGAAGCAAUUUAAAAUUACCAAACUCUCACCAGCAAUGGGUUGUAAAUUCCGAUUAUCAGCCAAAAAUGACUAUGGUGUAAGUGAUUUUAGUGAAGAGGUCCUGUAC | 0.168 ratio |
| AAACACCCUUUGUAUUCCAAAAUAGGGUCUCAAAACAUUUUGUAAUUUUCAUUUAAAUUGUCCGGAGGCUUGGAGCUAUUAGUUAAUCUAUCUUCCAAUACUGUUUAAUAUAGCACUGAA | 2.05 ratio |
| UAAACUGGUGCUUUAUGUACAUGAGAUGUACUAAAAUAAGUAAUAUAGAAUUUUUCUUGCCCGGUAAAUCCAGUAAGCCAAUAAUUUUAAAGAUUCUUUAUCUGCAUCAUUGCUGUUUGU | 0.257 ratio |
| CCUCCUUUAUUAAUUUUCUUCCAAAGACAAGGGAAGGCCGGCGGACGACCUGUGGGCCCUUCCGUUACCAAGUCGCAGUGGUACGCGGAGGACCGAGACUAGGAACGGACCUUGACCUUU | 0.202 ratio |
| UUUUAUGAACGACUGGCUGGCCAUGGUCCAAAACUAGGACCUGUCACUAGAAAGCAUCCUUCCGUUACCAGGUAUUUUACUUUCCCAUUUGAAGAGAUAGACUUCUCCAUGGAAGAAUCU | 0.152 ratio |
| GAUACUGGCAAACUGACCGGUGGAUCAUUUACCAUGAAAUACCAUGAUAUGCCUGACGUCACCGAUUUUCUAGUCUUGAGACAACAAUUUGAUGAUGCAAAGUAUAGACGAUGGAAUAUA | 0.243 ratio |
| UCAUCUACGUUUGCAAUUCCCCAGGAAUUAGAAAAAAGUGUACAGAUGUUUGAAUUAUUUUACCGCCAACAUUUCAGUGGAAGGAAACUUACAUGGUUACAUUAUCUGUGUACAGGUGAA | 0.563 ratio |
| ACCCUCUCUGGGGUUCAAGAAGAGUCCGCUCUUUGCUAUCUUCUCCAGGUUGAUGAGUUCCGGUUUUUGUUGGACUGUGGCUGGGAUGAACACUUCUCUGUGGACAUUAUUGAUUCCCUG | 0.117 ratio |

Series 4
Target: Histone acetyltransferase KAT6A, winged helix 2, GST fusion (KAT6A, Homo sapiens, UniProt Q92794, residues 85-181)
Method: protein binding microarray
Form: double-stranded DNA, one strand shown
Medium: in vitro
Tested at: not given
Notes: 8-mer, flanks averaged, mean of 2 arrays, mostly near background
Relative to: not given
Direction: higher = stronger binding
Construct (chain): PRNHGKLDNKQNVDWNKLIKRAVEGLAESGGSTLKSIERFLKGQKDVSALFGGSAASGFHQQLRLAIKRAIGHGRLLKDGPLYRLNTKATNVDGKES
| Strand | E-score |
| --- | --- |
| CAACTCGA | -0.0426 |
| AACGAGCC | 0.0702 |
| AGCGCAAG | -0.0742 |
| AGCGGCGC | 0.205 |
| ATGGTAGG | -0.113 |
| ACCGACCG | 0.0197 |
| TGTTAGAA | -0.0412 |
| GCGACAGA | -0.137 |
| TCCGGGAA | 0.139 |
| ATACAAGG | 0.0138 |
| CACACCTA | -0.211 |
| GCGAAAGC | 0.181 |
| GGATTCAA | 0.0413 |
| CAAGATCC | 0.0911 |
| AGGCTATA | 0.0101 |
| TAAATCGA | 0.0526 |
| TAACTATA | -0.127 |
| GCTGTAAA | 0.114 |
| GCACTCGC | 0.216 |
| ATCCCCCG | 0.0659 |
| AGGGCACC | 0.0613 |
| AAGTAATC | -0.0507 |
| ATGAGAAT | 0.027 |
| CCCGCGAC | 0.219 |
| GGTAGAAA | 0.0663 |

For quick reference, copied from above (series 2):
| Strand | log fluorescence [z-score] |
| --- | --- |
| TTAGGTCTCCATCTCCTTTAGTGCTAG | -0.0204 |
| TCCAAATTGTCTCTGTCCCTGTGCTAG | 0.115 |
| GACTGTTTCGGGACTGGGGACGTGCTA | 4.82 |
| TATTTTTTTGTAATCGAAATGTGCTAG | 1.84 |
| ACTCCTGTACATCTATGTAGGTGCTAG | -0.0935 |
| TCATATATCCATTATAGACTGTGCTAG | 0.544 |
| TCAAGCCTCAGTCCTCACACTGTGCTA | -0.421 |
| GACGGTCTAGGTTTCGGGACGTGCTAG | 2.53 |
| GCCGGTCTCGGTATCGGGACGTGCTAG | 1.13 |
